{"data": "Measured values pooled from the literature", "note": "Each line is one published result; not all experiments were run side by side. ± marks the error that the study gave."}
{"Compound": "CC[C@H](C)[C@@H]1NC(=O)[C@H](Cc2ccccc2)NC(=O)[C@H](CC(=O)O)NC(=O)[C@H](CCCNC(=N)N)NC(=O)[C@H](Cc2ccccc2)NC(=O)[C@H](Cc2ccccc2)NC(=O)[C@@H](NC(=O)[C@H](CO)NC(=O)[C@H](CC(C)C)NC(=O)[C@H](CCCNC(=N)N)NC(=O)[C@H](CCSC)NC(=O)[C@H](C)N)CCCNC(=O)NCCCC[C@@H](C(=O)N[C@@H](CCC(N)=O)C(=O)N[C@@H](CCCNC(=N)N)C(=O)N[C@@H](CCCCN)C(=O)N[C@@H](CCCCN)C(=O)O)NC1=O", "assay": "circular dichroism", "test system": "20% TFE in PBS", "conditions": "200 µM, pH 7.4, 25 °C", "quantity": "helicity", "result": "4.4%"}
{"Compound": "CC(C)[C@H](NC(=O)CNC(=O)[C@H](CCC(N)=O)NC(=O)[C@H](C)N)C(=O)O", "test system": "human, plasma", "conditions": "intravenous bolus, 1 mg/kg single, 2 min infusion, geometric mean", "quantity": "AUC(0-last)", "result": "2 µg·h/L"}
{"Compound": "COc1ccc2cc(-c3ccc(-c4ccc(C)cn4)nc3)oc2c1", "test system": "acetonitrile", "conditions": "zinc-free ligand, together with: quinine bisulfate reference", "quantity": "fluorescence quantum yield", "result": 0.91}
{"Compound": "COc1ccc(/C=C/C2=[N+]3C(=C(C=O)c4c(C)c(Br)c(/C=C/c5ccc(OC)cc5)n4[B-]3(F)F)C(C)=C2Br)cc1", "test system": "DMSO/methanol 1:1", "conditions": "1 h, together with: 645 nm light, 9.00 J/cm2", "quantity": "photostability", "result": "unstable"}
{"Compound": "CC12CC(c3ccc(S(C)(=O)=O)cc3)C3=C4CCC(=O)C=C4CCC3C1CCC2(O)C(F)(F)C(F)(F)F (stereo not drawn)", "test system": "human, plasma", "conditions": "intravenous, 15.7 µg, [14C] microdose, geometric mean", "quantity": "Vz", "result": "442 L"}
{"Compound": "CNC(=O)c1ccc(N2CCN(Cc3ccc4nc(C)c(=O)[nH]c4c3F)CC2)c([18F])n1", "test system": "human plasma", "conditions": "90 min", "quantity": "remaining intact tracer", "result": "> 95%"}
{"Compound": "Oc1ccc2ccccc2c1/N=N/c1ccc(/N=N/c2ccccc2)cc1", "test system": "extracted rat blood QC samples", "conditions": "0.5 µg/L, 4 h, room temperature, short-term stability", "quantity": "measured concentration", "result": "0.467 µg/L"}
{"Compound": "OC1(C(F)(F)F)CCN(c2nc(Nc3ccnc(C(F)(F)F)c3)nc(-c3cccc(C(F)(F)F)n3)n2)C1 (stereo not drawn)", "test system": "monkey, blood", "conditions": "oral, 10 mg/kg", "quantity": "oral bioavailability", "result": "163%"}
{"Compound": "CC(=O)N[C@@H](CC(N)=O)C(=O)NCC(=O)N[C@@H](C)C(=O)N[C@@H](C)C(N)=O", "assay": "1H NMR", "test system": "sodium phosphate buffer 50 mM", "conditions": "pH 7.4, 55 °C", "quantity": "half-life of Asn form", "result": "3.2 h"}
{"Compound": "CC[C@H](C)[C@H](NC(=O)[C@H](N)Cc1ccc(O)cc1)C(=O)N[C@H]1CSSC[C@@H](C(=O)N(C)[C@H](C(N)=O)[C@@H](C)CC)NC(=O)[C@H](CCCNC(=N)N)NC(=O)[C@H](Cc2c[nH]cn2)NC(=O)[C@H](C)NC(=O)CN(C)C(=O)[C@H](Cc2c[nH]c3ccccc23)NC(=O)[C@H](CC(=O)O)NC(=O)[C@H](CCC(N)=O)NC(=O)[C@H](Cc2cn(C)c3ccccc23)NC(=O)[C@H](C(C)C)NC1=O", "assay": "UPLC-ESI-MS", "test system": "cynomolgus monkey plasma", "conditions": "0.18 µg/mL, 48 h, 25 °C, bench-top after SPE", "quantity": "recovery", "result": "100.4 ± 0.5%"}
{"Compound": "N=C(N)NCCC[C@@H]1NC(=O)[C@H](Cc2c[nH]c3ccccc23)NC(=O)[C@@H](CC2CCCCC2)NC(=O)[C@@H]2CCCN2C(=O)[C@@H](NC(=O)CCc2ccccc2)CCCNC1=O", "test system": "C57BL/6J mouse, plasma spinal cord", "conditions": "subcutaneous, 1 mg/kg single dose", "quantity": "MRT(0-inf)", "result": "2.71 h"}
{"Compound": "CC/C=C\\C/C=C\\C/C=C\\C/C=C\\C/C=C\\CCCCOC(CC)C(=O)O (stereo not drawn)", "assay": "[14C] label", "test system": "male Wistar rat, liver", "conditions": "oral, 100 mg/kg, 1 day", "quantity": "radioactivity concentration", "result": "25.5 µg equiv/g"}
{"Compound": "COC(=O)c1ccc2c(c1)NC(=O)/C2=C(\\Nc1ccc2c(c1)CCN2C(=O)CN1CCOCC1)c1ccccc1", "test system": "cynomolgus monkey, blood", "conditions": "intravenous, 2 mg/kg", "quantity": "clearance", "result": "10.2 mL/min/kg"}
{"Compound": "Cc1cc2c(cc1C1(c3ncc(C(=O)O)cn3)CC1)C(C)(C)CCC2(C)C", "test system": "Sprague-Dawley rat, male", "conditions": "oral, 100 mg/kg, 3 h, sesame oil vehicle", "quantity": "blood cholesterol", "result": "80 ± 10.8 mg/dL"}
{"Compound": "CC(C)(Sc1ccncc1-c1ccc(C#N)c2ccccc12)C(=O)OC1OC(C(=O)O)C(O)C(O)C1O (stereo not drawn)", "test system": "plasma", "conditions": "oral, 15 mg, moderate renal impairment", "scale": "relative to: impaired over normal renal function", "quantity": "AUC(0-inf) ratio", "result": "313%"}
{"Compound": "C[C@H](Oc1cc(-c2cnn(C3CCN(CC[18F])CC3)c2)cnc1N)c1c(Cl)ccc(F)c1Cl", "assay": "PET imaging", "test system": "nude mouse, muscle", "conditions": "iv, 30 min post injection", "quantity": "tracer uptake", "result": "1.6 ± 0.7 %ID/cc"}
{"Compound": "O=C(O)C1OC(OC2C(COS(=O)(=O)O)OC(OC3C(C(=O)O)OC(OC4C(COS(=O)(=O)O)OC(OC5C(C(=O)O)OC(OC6C(COS(=O)(=O)O)OC(OC7C(C(=O)O)OC(OC8C(COS(=O)(=O)O)OC(OC9C(C(=O)O)OC(OC%10C(COS(=O)(=O)O)OC(OC%11C(C(=O)O)OC(Oc%12ccc([N+](=O)[O-])cc%12)C(O)C%11O)C(NS(=O)(=O)O)C%10O)C(OS(=O)(=O)O)C9O)C(NS(=O)(=O)O)C8O)C(OS(=O)(=O)O)C7O)C(NS(=O)(=O)O)C6O)C(OS(=O)(=O)O)C5O)C(NS(=O)(=O)O)C4O)C(OS(=O)(=O)O)C3O)C(NS(=O)(=O)O)C2OS(=O)(=O)O)C(O)C(O)C1OC1OC(COS(=O)(=O)O)C(O)C(O)C1NS(=O)(=O)O (stereo not drawn)", "test system": "rat, brain", "conditions": "intravenous, 3600 µg/kg per day, 7 days, day 8", "quantity": "organ-to-body weight ratio", "result": "0.71 ± 0.02"}
{"Compound": "COc1cc2c(cc1OC)CN(CCCCn1ccc3cc(OCC[18F])ccc31)C2", "test system": "male CD-1 mouse, spleen", "conditions": "intravenous, 2 min", "quantity": "tracer uptake", "result": "6.18 %ID/g"}
{"Compound": "Cn1c(=O)oc2ccc(-c3ccc(CC(C#N)NC(=O)C4CNCCCO4)c(F)c3)cc21 (stereo not drawn)", "test system": "human", "conditions": "oral, 40 mg once daily, treatment-related AE, multiple ascending dose", "quantity": "mouth ulceration incidence", "result": "0%"}
{"Compound": "CC[C@H](C)[C@H](NC(=O)[C@H](Cc1ccccc1)NC(=O)[C@H](CN)NC(=O)[C@H](CCCNC(=N)N)NC(=O)[C@H](Cc1ccccc1)NC(=O)[C@H](Cc1ccccc1)NC(=O)[C@H](CCCCN)NC(=O)[C@H](CO)NC(=O)[C@H](CC(C)C)NC(=O)[C@H](CCCNC(=N)N)NC(=O)[C@H](CCSC)NC(=O)[C@H](C)N)C(=O)N[C@@H](CC(C)C)C(=O)N[C@@H](CCCN)C(=O)N[C@@H](CCCNC(=N)N)C(=O)N[C@@H](CCCCN)C(=O)N[C@@H](CCCCN)C(=O)O", "assay": "circular dichroism", "test system": "20% TFE in PBS", "conditions": "200 µM, pH 7.4, 25 °C", "quantity": "helicity", "result": "5.6%"}
{"Compound": "O=C(N[C@@H](CC1CCCCC1)C(=O)N[C@@H](C[C@H]1CCNC1=O)C(=O)C(=O)NC1CC1)OCc1cccc(Cl)c1", "test system": "rat, Sprague-Dawley, female, plasma", "conditions": "intravenous, 10 mg/kg", "quantity": "volume of distribution", "result": "0.0022 (mg/kg)/(ng/mL)"}
{"Compound": "COC(=O)C(c1ccccc1Cl)N1CCC(SCC(=O)c2cccc(OC)c2)C(=CC(=O)O)C1 (mixture of isomers)", "assay": "HPLC-MS/MS", "test system": "feline EDTA plasma", "conditions": "100 ng/mL, 6 h, -80 °C, storage stability", "quantity": "deviation from nominal", "result": "1%"}
{"Compound": "C[C@H]1NSc2nc(=O)c3[nH]ccc3n2Cc2ccc(Cl)cc21", "test system": "dog, both sexes, plasma", "conditions": "100 mg/kg", "scale": "relative to: dog over human 5 mg", "quantity": "exposure ratio", "result": "not detected"}
{"Compound": "CCCC(CCC)NC(=O)c1ccc(OC2OC(C(=O)O)C(O)C(O)C2O)c(O)c1 (stereo not drawn)", "test system": "female Sprague-Dawley rat, plasma", "conditions": "oral, 20 mg/kg of parent drug", "quantity": "Tmax", "result": "5 h"}
{"Compound": "COc1cc(F)c(C(C)C)cc1C1=C(CN2C(=O)O[C@H](c3cc(C(F)(F)F)cc(C(F)(F)F)c3)[C@@H]2C)CC(C)(C)CC1", "assay": "non-compartmental analysis", "test system": "healthy male subjects, plasma", "conditions": "oral, 400 mg single dose", "quantity": "Vd/F per body weight", "result": "154 L/kg"}
{"Compound": "CC(=O)N[C@H](CCCCN)C(=O)N[C@H](CC(C)C)C(=O)N[C@H](CCCCN)C(=O)N[C@H](CO)C(=O)N[C@H](CC(C)C)C(=O)N[C@H](CC(C)C)C(=O)N[C@H](CCCCN)C(=O)N[C@@H](C(=O)N[C@H](CC(C)C)C(=O)N[C@H](CO)C(=O)N[C@H](CCCCN)C(=O)N[C@H](C)C(=O)N[C@H](CCCCN)C(=O)N[C@H](CCCCN)C(=O)N[C@H](CCCCN)C(=O)N[C@H](CCCCN)C(=O)N[C@H](CC(C)C)C(=O)N[C@H](CCCCN)C(=O)N[C@@H](C(=O)N[C@H](CC(C)C)C(=O)N[C@H](CC(C)C)C(=O)N[C@H](CCCCN)C(=O)N[C@H](C)C(=O)N[C@H](CC(C)C)C(=O)N[C@H](CO)C(=O)N[C@H](CCCCN)C(N)=O)[C@H](C)O)[C@H](C)O", "assay": "RP-HPLC temperature profiling", "conditions": "pH 2, 5-80 °C, unit not given", "scale": "relative to: control peptide", "quantity": "self-association parameter", "result": 5.17}
{"Compound": "CCC(=O)N[C@@H](C)C(=O)OCC(=O)N[C@@H](C)C(=O)O", "test system": "water", "conditions": "pH 3, 50 °C", "quantity": "depolymerization half-life", "result": "232 h"}
{"note": "Some of these lines once more:"}
{"Compound": "CC(C)[C@H](NC(=O)CNC(=O)[C@H](CCC(N)=O)NC(=O)[C@H](C)N)C(=O)O", "test system": "human, plasma", "conditions": "intravenous bolus, 1 mg/kg single, 2 min infusion, geometric mean", "quantity": "AUC(0-last)", "result": "2 µg·h/L"}
{"Compound": "COC(=O)C(c1ccccc1Cl)N1CCC(SCC(=O)c2cccc(OC)c2)C(=CC(=O)O)C1 (mixture of isomers)", "assay": "HPLC-MS/MS", "test system": "feline EDTA plasma", "conditions": "100 ng/mL, 6 h, -80 °C, storage stability", "quantity": "deviation from nominal", "result": "1%"}
